# Experimental data collected from several papers.
# Several values in a cell are separate wells, animals, samples, runs or records.
SMILES,organism,test,system,conditions,how to read,measurement,result
Nc1ncnc2c([C@@H]3N[C@H](CO)[C@@H](O)[C@H]3O)c[nH]c12,Rhinovirus A,viral replication,HRV2 HGP,0.3 µM,,inhibition,0%
C[N+]1=C2C=C(N)C(=O)c3[nH]cc(c32)CC1,Saccharomyces cerevisiae,"cell growth, liquid culture",BY4741,"100 µM, 24 h",,inhibition,1.6%
CS(=O)(=O)CCCn1c(Cn2c(=O)n(CC(F)(F)F)c3ccncc32)cc2cc(Cl)ccc21,respiratory syncytial virus,RT-qPCR,"hospitalized infants 1-24 months, nasal swab","oral, 9, 6 or 5 mg/kg daily, day 7, high dose by age cohort",baseline: placebo,LS mean difference vs placebo,0.34 log10 copies/mL
COc1cc(C#CC(=O)c2ccccc2)ccc1O,Pseudomonas aeruginosa,,,"10 µM, 24 h",baseline: untreated,rhamnolipid production,31%
COc1ccccc1/N=N/c1cc(C(=O)O)ccc1-c1ccc(C(=O)O)cc1,Schistosoma mansoni,microscopic viability scoring,newly transformed schistosomula,"10 µM, 72 h, prescreen",,viability reduction,12.5%
CC[C@H](C)[C@H](NC(=O)[C@H](C)NC(=O)[C@H](CCCCN)NC(=O)[C@H](CC(C)C)NC(=O)[C@H](C)NC(=O)[C@@H](NC(=O)[C@H](Cc1c[nH]cn1)NC(=O)[C@H](CC(C)C)NC(=O)[C@@H](NC(=O)[C@@H](NC(=O)[C@H](CCCCN)NC(=O)[C@H](C)NC(=O)[C@H](C)NC(=O)[C@H](CO)NC(=O)[C@H](CCCCN)NC(=O)[C@H](Cc1ccccc1)NC(=O)[C@@H](NC(=O)[C@H](CCCCN)NC(=O)[C@H](CC(C)C)NC(=O)[C@H](Cc1ccccc1)NC(=O)[C@H](CO)NC(=O)[C@H](CCCCN)NC(=O)[C@H](Cc1c[nH]c2ccccc12)NC(=O)[C@H](CCCCN)NC(C)=O)[C@@H](C)O)[C@@H](C)O)C(C)C)[C@@H](C)O)C(=O)N[C@@H](CO)C(=O)N[C@@H](CO)C(N)=O,Klebsiella pneumoniae,,ATCC 700603 (ESBL),,,MBC50,8 µg/mL
C[C@]12CC[C@@H]3c4ccc(O)cc4CC[C@H]3[C@@H]1CC[C@@H]2O,Arabidopsis thaliana,,shoots,1 µM,,ABA level,48 pmol/g dry weight and 40.8 pmol/g dry weight and 49.1 pmol/g dry weight and 44.2 pmol/g dry weight
CC1(C)SC2C(NC(=O)C(NC(=O)C3=C(O)C(Cc4ccccc4)NC3=O)c3ccccc3)C(=O)N2C1C(=O)O (centres unmarked),Escherichia coli,broth microdilution,"isolate IU 356 A, KPC-3, VIM-1, TEM",together with: clavulanic acid 6 µg/mL,,MIC,> 200 µg/mL
CNCC(=O)N[C@@H](CO)C(=O)N[C@H]1[C@H](O)[C@@H](O)[C@H](n2ccc(N)nc2=O)O[C@@H]1C(N)=O,Potato virus Y,in vivo,,500 µg/mL,,inactivation activity,76% and 78%
C[C@@H](O[C@H]1OCCN(Cc2n[nH]c(=O)[nH]2)[C@H]1c1ccc(F)cc1)c1cc(C(F)(F)F)cc(C(F)(F)F)c1,Human immunodeficiency virus 1,viral replication,"PBMC, subtype D isolate from Senegal, X4, SI",,,IC50,6.85 µM
COc1ccc2c(c[n+](C)c3c4cc5c(cc4ccc23)OCO5)c1OC,Bovine alphaherpesvirus 1,viral replication,MDBK,,,IC50,0.11 µM
Cc1c2c(nn1C)CSCc1cc(n(C)n1)CSc1cc(c3ccccc3c1)OCCCc1c(C(=O)O)n(C)c3c-2c(Cl)ccc13,Staphylococcus aureus,"label-free quantitative proteomics, refers to: SAOUHSC_01833 protein",SA113,concentration not given,baseline: untreated control,log2 fold change,5.55
CC(C)[C@H](NC(=O)[C@H](CCCNC(=N)N)NC(=O)[C@H](Cc1c[nH]c2ccccc12)NC(=O)[C@H](CCCNC(=N)N)NC(=O)[C@H](Cc1c[nH]c2ccccc12)NC(=O)[C@H](Cc1c[nH]c2ccccc12)NC(=O)[C@H](Cc1c[nH]c2ccccc12)NC(=O)[C@H](CCCNC(=N)N)NC(=O)[C@H](Cc1c[nH]c2ccccc12)NC(=O)[C@@H](N)CCCNC(=N)N)C(N)=O,Candida albicans,broth microdilution,"CGMCC 2.209, RPMI 1640-MOPS","48 h, 30 °C, together with: ZnCl2 8 µM",,MIC,16 µM
O=C1OC(C(F)(F)F)N=C1c1ccc(O)cc1 (centres unmarked),Schistosoma mansoni,microscopic viability scoring,newly transformed schistosomula,"10 µM, 72 h, prescreen",,viability reduction,6.7%
COC(=O)N[C@H](C(=O)N1CCC[C@H]1c1ncc(-c2ccc(-c3ccc(-c4cnc([C@@H]5CCCN5C(=O)[C@@H](NC(=O)OC)C(C)C)[nH]4)cc3)cc2)[nH]1)C(C)C,Hepatitis C virus,,"replicon cells, genotype 1a","50% effect level, together with: NS3 inhibitor, ratio 1:1",,combination index,1.15
CO[C@H]1[C@H](O[C@H]([C@H]2O[C@@H](n3ccc(=O)[nH]c3=O)[C@H](O)[C@@H]2O)[C@H](NCCCNC(=O)[C@@H](NC(=O)[C@@H](NC(=O)N[C@H](C(=O)O)C(C)C)[C@@H]2CCN=C(N)N2)[C@@H](OC(=O)CCCCCCCCCCCCN(O)C(=N)N)C(C)C)C(=O)O)O[C@H](CN)[C@H]1O,Cryptococcus gattii,alamar blue,C17,,,MIC50,> 35 µg/mL
CN[C@H](CC(C)C)C(=O)N[C@H]1C(=O)N[C@@H](CC(N)=O)C(=O)N[C@H]2C(=O)N[C@H]3C(=O)N[C@H](C(=O)N[C@H](C(=O)O)c4cc(O)cc(O)c4-c4cc3ccc4O)[C@H](O)c3ccc(c(Cl)c3)Oc3cc2cc(c3O[C@@H]2O[C@H](CO)[C@@H](O)[C@H](O)[C@H]2O[C@H]2C[C@](C)(N)[C@H](O)[C@H](C)O2)Oc2ccc(cc2Cl)[C@H]1O,Staphylococcus aureus,,"CAAS-2019-CAAS-2019-14 clinical blaZ-resistant isolate, PBS",,,MBC,2 µg/mL
CCCCn1nnnc1C(c1ccc(F)cc1)N1CCc2ccccc2C1 (centres unmarked),Schistosoma mansoni,microscopic viability scoring,newly transformed schistosomula,"10 µM, 72 h, prescreen",,viability reduction,16.7%
C[C@H](NC(=O)[C@H](CCCNC(=N)N)NC(=O)[C@H](Cc1c[nH]c2ccccc12)NC(=O)[C@H](CCCNC(=N)N)NC(=O)[C@H](Cc1c[nH]c2ccccc12)NC(=O)[C@H](Cc1c[nH]c2ccccc12)NC(=O)[C@H](Cc1c[nH]c2ccccc12)NC(=O)[C@H](CCCNC(=N)N)NC(=O)[C@H](Cc1c[nH]c2ccccc12)NC(=O)[C@@H](N)CCCNC(=N)N)C(N)=O,Candida albicans,broth microdilution,"SP3931, RPMI 1640-MOPS","48 h, 30 °C",,MIC,4 µM
Nc1ncnc2c1ncn2[C@@H]1O[C@@H]2COP(=O)(O)O[C@H]3[C@@H](O)[C@H](n4cnc5c(=O)[nH]cnc54)O[C@@H]3COP(=O)(O)O[C@H]2[C@H]1O,West Nile virus,"RNA sequencing, refers to: pro-inflammatory cell recruitment R-HSA-9664424",HFF-1 cells,"concentration not given, upregulated pathway",baseline: WNV-infected untreated cells,fold enrichment,7.08
N=C(N)c1ccc(OCc2cc(COc3ccc(C(=N)N)cc3)cc(-c3ccccc3)c2)cc1,Escherichia coli,checkerboard,BW25113 mcr-1 plasmid,"unit not given, together with: rifampicin",lower = stronger synergy,FICI,≤ 0.039
CC1(C)NC(=O)N(c2cccc(S(F)(F)(F)(F)F)c2)C1=O,Schistosoma mansoni,,"adult, infected NMRI mice","oral, 100 mg/kg single dose",,worm burden reduction,43%
O=c1oc2ccc(-c3ccccc3)cc2nc1-c1ccc(O)cc1,Schistosoma mansoni,microscopic viability scoring,newly transformed schistosomula,"10 µM, 72 h, prescreen",,viability reduction,12.5%
CCCCc1ccc(CNc2nc(N(C)C)nc(N(C)C)c2/N=N/c2ccc(Cl)cc2)cc1,Ostrinia furnacalis,leaf dipping,,100 mg/L,,mortality,73.3%
C[Si](C)(C)C#Cc1ccc(C#C[Si](C)(C)C)cc1,Schistosoma mansoni,microscopic viability scoring,newly transformed schistosomula,"10 µM, 72 h, prescreen",,viability reduction,17.9%
CCCCCC[C@H]1C(=O)O[C@H](C)[C@H](NC(=O)c2cccc(NC=O)c2O)C(=O)O[C@@H](C)[C@@H]1OC(=O)CC(C)C,Bovine alphaherpesvirus 1,viral replication,"MDBK, wild type",,,IC50,0.012 µM
CCCCCc1cc(OC)c2cc(Cc3cccc(OC)c3)c(=O)oc2c1,Schistosoma mansoni,microscopic viability scoring,newly transformed schistosomula,"10 µM, 72 h, prescreen",,viability reduction,28.6%
CC(C)C[C@H](NC(=O)[C@H](CCN)NC(=O)[C@H](CCN)NC(=O)[C@@H](Cc1ccccc1)NC(=O)[C@H](CC(C)C)NC(=O)[C@H](CCN)NC(=O)[C@H](CCN)NC(=O)[C@H](N)CCN)C(N)=O,Acinetobacter calcoaceticus,BHI agar spot plating,,"24 h, 37 °C",,MBC,> 128 µM
O=C1NC2CCCCC2N=C1c1ccccc1 (centres unmarked),Schistosoma mansoni,microscopic viability scoring,newly transformed schistosomula,"10 µM, 72 h, prescreen",,viability reduction,14.3%
COc1ccc(C[C@H]2NC[C@H](O)[C@H]2OC(C)=O)cc1,Trichomonas gallinae,"trophozoite viability, CCK-8",,"20 µM, 24 h",,inhibition,97.9%
Clc1ccc(-c2ccccc2/C=N/c2cccnc2Cl)cc1,Schistosoma mansoni,microscopic viability scoring,newly transformed schistosomula,"10 µM, 72 h, prescreen",,viability reduction,6.9%
NC(=O)c1nc(F)c[nH]c1=O,Dengue virus,viral replication,"BHK-21, DENV3",120 h,,EC50,13 µM

# Repeated from above:
SMILES,organism,test,system,conditions,how to read,measurement,result
C[N+]1=C2C=C(N)C(=O)c3[nH]cc(c32)CC1,Saccharomyces cerevisiae,"cell growth, liquid culture",BY4741,"100 µM, 24 h",,inhibition,1.6%
CS(=O)(=O)CCCn1c(Cn2c(=O)n(CC(F)(F)F)c3ccncc32)cc2cc(Cl)ccc21,respiratory syncytial virus,RT-qPCR,"hospitalized infants 1-24 months, nasal swab","oral, 9, 6 or 5 mg/kg daily, day 7, high dose by age cohort",baseline: placebo,LS mean difference vs placebo,0.34 log10 copies/mL
COc1cc(C#CC(=O)c2ccccc2)ccc1O,Pseudomonas aeruginosa,,,"10 µM, 24 h",baseline: untreated,rhamnolipid production,31%
COc1ccccc1/N=N/c1cc(C(=O)O)ccc1-c1ccc(C(=O)O)cc1,Schistosoma mansoni,microscopic viability scoring,newly transformed schistosomula,"10 µM, 72 h, prescreen",,viability reduction,12.5%
CC[C@H](C)[C@H](NC(=O)[C@H](C)NC(=O)[C@H](CCCCN)NC(=O)[C@H](CC(C)C)NC(=O)[C@H](C)NC(=O)[C@@H](NC(=O)[C@H](Cc1c[nH]cn1)NC(=O)[C@H](CC(C)C)NC(=O)[C@@H](NC(=O)[C@@H](NC(=O)[C@H](CCCCN)NC(=O)[C@H](C)NC(=O)[C@H](C)NC(=O)[C@H](CO)NC(=O)[C@H](CCCCN)NC(=O)[C@H](Cc1ccccc1)NC(=O)[C@@H](NC(=O)[C@H](CCCCN)NC(=O)[C@H](CC(C)C)NC(=O)[C@H](Cc1ccccc1)NC(=O)[C@H](CO)NC(=O)[C@H](CCCCN)NC(=O)[C@H](Cc1c[nH]c2ccccc12)NC(=O)[C@H](CCCCN)NC(C)=O)[C@@H](C)O)[C@@H](C)O)C(C)C)[C@@H](C)O)C(=O)N[C@@H](CO)C(=O)N[C@@H](CO)C(N)=O,Klebsiella pneumoniae,,ATCC 700603 (ESBL),,,MBC50,8 µg/mL
